# Experimental data collected from several papers.
# Numbers after ± are the reported error.
# B1: SIRT1 del7-83 (Homo sapiens, UniProt Q96EB6); sequence looked up; chain MADEAAAAAGGEQEAQATAAAGEGDNGPGLQGPSREPPLADNLYDEDDDDEGEEEEEAAAAAIGYRDNLLFGDEIITNGFHSCESDEEDRASHASSSDWTPRPRIGPYTFVQQHLMIGTDPRTILKDLLPETIPPPELDDMTLWQIVINILSEPPKRKKRKDINTIEDAVKLLQECKKIIVLTGAGVSVSCGIPDFRSRDGIYARLAVDFPDLPDPQAMFDIEYFRKDPRPFFKFAKEIYPGQFQPSLCHKFIALSDKEGKLLRNYTQNIDTLEQVAGIQRIIQCHGSFATASCLICKYKVDCEAVRGDIFNQVVPRCPRCPADEPLAIMKPEIVFFGENLPEQFHRAMKYDKDEVDLLIVIGSSLKVRPVALIPSSIPHEVPQILINREPLPHLHFDVELLGDCDVIINELCHRLGGEYAKLCCNPVKLSEITEKPPRTQKELAYLSELPPTPLHVSEDSSSPERTSPPDSSVIVTLLDQAAKSNDDLDVSESKGCMEEKPQEVQTSRNVESIAEQMENPDLKNVGSSTGEKNERTSVAGTVRKCWPNRVAKEQISRRLDGNQYLFLPPNRYIFHGAEVYSDSEDDVLSSSSCGSNSDSGTCQSPSLEEPMEDESEIEEFYNGLEDEPDVPERAGGAGFGTDGDDQEAINEAISVKQEVTDMNYPSNKS
# B2: UGT1A9 (Homo sapiens, UniProt O60656); chain GKLLVVPMDGSHWFTMRSVVEKLILRGHEVVVVMPEVSWQLGRSLNCTVKTYSTSYTLEDLDREFKAFAHAQWKAQVRSIYSLLMGSYNDIFDLFFSNCRSLFKDKKLVEYLKESSFDAVFLDPFDNCGLIVAKYFSLPSVVFARGILCHYLEEGAQCPAPLSYVPRILLGFSDAMTFKERVRNHIMHLEEHLLCHRFFKNALEIASEILQTPVTEYDLYSHTSIWLLRTDFVLDYPKPVMPNMIFIGGINCHQGKPLPMEFEAYINASGEHGIVVFSLGSMVSEIPEKKAMAIADALGKIPQTVLWRYTGTRPSNLANNTILVKWLPQNDLLGHPMTRAFITHAGSHGVYESICNGVPMVMMPLFGDQMDNAKRMETKGAGVTLNVLEMTSEDLENALKAVINDKSYKENIMRLSSLHKDRPVEPLDLAVFWVEFVMRHKGAPHLRPAAHDLTWYQYHSLDVIGFLLAVVLTVAFITFKCCAYGYRKCLGKKGRVKKAHKSKTH
# B3: INO80 1022-1294 (Saccharomyces cerevisiae, UniProt P53115); sequence looked up; chain VDSPFSFTTFGKTTSMLTASVANNNSSVISNSNMNLSSMSSNNISNGKFTDLIYSSRNPIKYSLPRLIYEDLILPNYNNDVDIANKLKNVKFNIFNPSTNYELCLFLSKLTGEPSLNEFFRVSTTPLLKRVIERTNGPKNTDSLSFKTITQELLEVTRNAPSEGVMASLLNVEKHAYEREYLNCIQRGYHPNVSAPPVTIEVLGSSHVTNSINNELFDPLISQALSDIPAITQYNMHVKKGIPVEDFPKTGLFPEPLNKNFSSNISMPSMDRF
# Chain of UniProt Q99828 (whole entry, looked up): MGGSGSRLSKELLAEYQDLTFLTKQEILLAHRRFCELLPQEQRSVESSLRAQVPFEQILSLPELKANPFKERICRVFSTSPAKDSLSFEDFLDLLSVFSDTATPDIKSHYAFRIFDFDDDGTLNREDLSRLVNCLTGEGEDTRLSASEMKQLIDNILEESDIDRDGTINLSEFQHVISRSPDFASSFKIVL
# Chain of UniProt O93603 (whole entry, looked up): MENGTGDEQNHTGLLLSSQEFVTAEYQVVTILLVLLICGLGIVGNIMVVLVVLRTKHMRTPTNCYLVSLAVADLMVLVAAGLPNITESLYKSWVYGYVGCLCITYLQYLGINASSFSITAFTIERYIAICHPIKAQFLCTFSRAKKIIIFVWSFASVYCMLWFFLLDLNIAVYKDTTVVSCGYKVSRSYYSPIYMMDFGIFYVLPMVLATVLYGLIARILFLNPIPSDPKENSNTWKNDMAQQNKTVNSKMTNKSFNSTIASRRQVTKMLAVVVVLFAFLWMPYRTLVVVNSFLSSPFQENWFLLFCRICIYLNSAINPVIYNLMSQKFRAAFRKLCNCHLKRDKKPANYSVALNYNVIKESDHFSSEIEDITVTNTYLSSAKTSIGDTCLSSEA
# Chain of UniProt A2A935 (whole entry, looked up): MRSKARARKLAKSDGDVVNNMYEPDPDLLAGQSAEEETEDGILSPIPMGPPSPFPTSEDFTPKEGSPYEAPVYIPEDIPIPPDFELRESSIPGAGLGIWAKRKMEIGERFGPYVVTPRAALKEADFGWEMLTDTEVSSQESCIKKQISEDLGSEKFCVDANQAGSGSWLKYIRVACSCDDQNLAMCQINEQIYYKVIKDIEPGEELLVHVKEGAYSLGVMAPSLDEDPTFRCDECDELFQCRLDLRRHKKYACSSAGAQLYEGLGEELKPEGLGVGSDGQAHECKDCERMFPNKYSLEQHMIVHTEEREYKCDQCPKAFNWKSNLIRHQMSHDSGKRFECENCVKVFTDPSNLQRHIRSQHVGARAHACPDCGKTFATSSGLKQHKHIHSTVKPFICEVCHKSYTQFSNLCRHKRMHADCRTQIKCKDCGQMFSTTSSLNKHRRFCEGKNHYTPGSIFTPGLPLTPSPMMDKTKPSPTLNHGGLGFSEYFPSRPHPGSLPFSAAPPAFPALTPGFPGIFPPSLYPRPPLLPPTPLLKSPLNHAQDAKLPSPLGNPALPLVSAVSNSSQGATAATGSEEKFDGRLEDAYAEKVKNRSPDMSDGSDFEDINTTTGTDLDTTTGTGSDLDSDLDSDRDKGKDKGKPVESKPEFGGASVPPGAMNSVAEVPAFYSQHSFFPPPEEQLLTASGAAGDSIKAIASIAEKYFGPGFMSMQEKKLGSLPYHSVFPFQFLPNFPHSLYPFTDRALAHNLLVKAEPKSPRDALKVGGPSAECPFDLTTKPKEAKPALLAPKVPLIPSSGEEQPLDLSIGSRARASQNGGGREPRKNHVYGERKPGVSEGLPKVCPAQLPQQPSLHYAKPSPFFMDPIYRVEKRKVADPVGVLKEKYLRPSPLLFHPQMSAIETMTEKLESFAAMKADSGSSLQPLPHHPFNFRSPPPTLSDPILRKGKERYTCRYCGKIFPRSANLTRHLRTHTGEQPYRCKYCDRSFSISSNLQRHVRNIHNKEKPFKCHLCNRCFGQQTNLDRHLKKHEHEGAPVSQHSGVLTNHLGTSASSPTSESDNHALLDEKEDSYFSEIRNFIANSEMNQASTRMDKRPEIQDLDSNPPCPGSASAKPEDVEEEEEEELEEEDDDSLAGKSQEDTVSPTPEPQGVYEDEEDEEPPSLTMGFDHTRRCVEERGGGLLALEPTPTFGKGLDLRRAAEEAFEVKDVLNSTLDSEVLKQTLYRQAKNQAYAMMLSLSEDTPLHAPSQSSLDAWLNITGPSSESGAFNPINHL
# Chain of UniProt Q02248 (whole entry, looked up): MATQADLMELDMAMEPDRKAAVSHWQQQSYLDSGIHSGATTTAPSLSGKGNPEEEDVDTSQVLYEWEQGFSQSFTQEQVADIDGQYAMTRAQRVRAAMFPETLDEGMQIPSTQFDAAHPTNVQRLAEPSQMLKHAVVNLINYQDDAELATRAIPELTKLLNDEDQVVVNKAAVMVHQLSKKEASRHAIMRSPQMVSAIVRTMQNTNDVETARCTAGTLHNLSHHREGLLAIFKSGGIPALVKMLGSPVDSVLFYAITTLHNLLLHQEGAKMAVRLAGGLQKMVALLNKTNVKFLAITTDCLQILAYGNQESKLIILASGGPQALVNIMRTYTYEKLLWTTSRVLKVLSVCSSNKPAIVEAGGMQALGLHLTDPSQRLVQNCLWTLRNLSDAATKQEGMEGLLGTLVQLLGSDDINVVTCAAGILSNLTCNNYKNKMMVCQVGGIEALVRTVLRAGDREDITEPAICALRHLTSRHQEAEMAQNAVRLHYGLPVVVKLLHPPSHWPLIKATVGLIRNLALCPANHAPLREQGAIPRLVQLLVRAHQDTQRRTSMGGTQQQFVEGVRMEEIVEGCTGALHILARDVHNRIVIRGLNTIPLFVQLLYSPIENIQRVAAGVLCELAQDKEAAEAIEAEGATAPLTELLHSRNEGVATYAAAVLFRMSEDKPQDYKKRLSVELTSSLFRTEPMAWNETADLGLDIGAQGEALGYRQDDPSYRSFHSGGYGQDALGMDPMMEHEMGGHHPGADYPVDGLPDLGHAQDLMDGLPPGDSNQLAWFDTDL
# Chain of UniProt Q01196 (whole entry, looked up): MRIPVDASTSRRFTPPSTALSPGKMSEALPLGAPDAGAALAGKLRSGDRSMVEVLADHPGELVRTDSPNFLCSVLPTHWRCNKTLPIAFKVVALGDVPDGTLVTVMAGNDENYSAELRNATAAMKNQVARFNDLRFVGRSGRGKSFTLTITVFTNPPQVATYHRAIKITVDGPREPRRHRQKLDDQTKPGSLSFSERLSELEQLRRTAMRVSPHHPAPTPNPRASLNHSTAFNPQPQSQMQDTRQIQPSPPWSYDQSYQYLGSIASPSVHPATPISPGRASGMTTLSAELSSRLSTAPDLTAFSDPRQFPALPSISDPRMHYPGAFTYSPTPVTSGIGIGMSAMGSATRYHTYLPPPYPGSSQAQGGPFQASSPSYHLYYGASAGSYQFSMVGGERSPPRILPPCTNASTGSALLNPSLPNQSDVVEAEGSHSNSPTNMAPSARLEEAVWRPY
# Chain of UniProt Q13569 (whole entry, unmodified, looked up): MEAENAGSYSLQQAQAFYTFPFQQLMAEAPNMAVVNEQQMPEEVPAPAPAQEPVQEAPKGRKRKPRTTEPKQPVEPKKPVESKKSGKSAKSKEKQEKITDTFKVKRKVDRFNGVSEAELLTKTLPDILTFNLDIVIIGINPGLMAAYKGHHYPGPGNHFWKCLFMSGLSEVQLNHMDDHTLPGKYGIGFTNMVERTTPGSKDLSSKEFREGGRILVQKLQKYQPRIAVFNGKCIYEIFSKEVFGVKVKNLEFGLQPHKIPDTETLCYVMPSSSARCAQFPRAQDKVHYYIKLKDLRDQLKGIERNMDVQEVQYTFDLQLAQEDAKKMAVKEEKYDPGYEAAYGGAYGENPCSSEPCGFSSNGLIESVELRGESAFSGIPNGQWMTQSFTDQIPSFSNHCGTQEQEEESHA
# Chain of UniProt P09803 (whole entry, looked up): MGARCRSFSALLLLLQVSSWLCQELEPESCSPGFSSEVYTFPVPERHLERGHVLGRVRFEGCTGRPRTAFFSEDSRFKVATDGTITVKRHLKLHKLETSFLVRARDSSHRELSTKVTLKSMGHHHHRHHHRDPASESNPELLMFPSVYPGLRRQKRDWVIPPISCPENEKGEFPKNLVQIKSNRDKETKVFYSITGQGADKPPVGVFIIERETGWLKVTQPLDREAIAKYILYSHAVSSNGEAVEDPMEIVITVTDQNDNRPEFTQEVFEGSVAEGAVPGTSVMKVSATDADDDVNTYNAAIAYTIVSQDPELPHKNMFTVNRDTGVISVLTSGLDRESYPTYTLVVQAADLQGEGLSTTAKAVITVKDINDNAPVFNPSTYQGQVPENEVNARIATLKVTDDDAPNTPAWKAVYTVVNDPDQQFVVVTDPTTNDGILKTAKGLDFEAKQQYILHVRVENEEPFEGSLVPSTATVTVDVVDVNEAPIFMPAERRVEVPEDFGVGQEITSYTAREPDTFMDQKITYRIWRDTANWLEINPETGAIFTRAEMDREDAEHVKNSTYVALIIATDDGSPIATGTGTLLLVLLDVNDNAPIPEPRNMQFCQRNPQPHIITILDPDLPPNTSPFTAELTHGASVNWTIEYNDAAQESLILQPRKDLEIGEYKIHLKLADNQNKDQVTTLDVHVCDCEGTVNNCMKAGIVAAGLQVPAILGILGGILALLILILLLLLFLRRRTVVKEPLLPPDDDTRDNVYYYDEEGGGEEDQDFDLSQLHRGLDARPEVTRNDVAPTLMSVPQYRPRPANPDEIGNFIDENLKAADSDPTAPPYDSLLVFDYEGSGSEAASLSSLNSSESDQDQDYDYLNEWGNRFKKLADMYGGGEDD
Substance,target or system,test,system,conditions,how to read,endpoint,result
B1 (SIRT1 del7-83),"TDG (Homo sapiens, UniProt Q13569)",TDG glycosylase activity,,"2 nM, 64 min, added: T/G-DNA 5 nM","reference: reactions without SIRT1, higher = more product",product formation,5 fold
YGIGVGW,,,"peptide, human polyclonal IgM RF ABR","concentration not given, 5 µg/mL mAb II-481 coated, added: RF at 50% max binding concentration",,inhibition,12%
CBFB/MYH11 fusion (Homo sapiens),"RUNX1 (Homo sapiens, UniProt Q01196)",ChIP,ME-1,"6 hours h, RUNX3 promoter, added: AI-10-49 1 µM","reference: DMSO, higher = more occupancy",RUNX1 occupancy,8 fold
"GABBR1 GABAB1b isoform, full length (Homo sapiens)","GABBR2 R714A (Homo sapiens, UniProt O75899)",anti-Flag M1 on intact cells,,,"reference: WT/WT heterodimer, higher = more surface expression",cell surface expression,77%
B2 (UGT1A9),CCN(CC)C(=O)/C(C#N)=C/c1cc(O)c(O)c([N+](=O)[O-])c1,steady-state kinetics,,"pH 7.4, 37 °C",,Vmax/Km,10200 µL/min/mg
B3 (INO80 1022-1294),Rvb1/Rvb2 (Saccharomyces cerevisiae),NADH-coupled assay,,,"reference: Rvb1/Rvb2 alone, higher = faster ATP hydrolysis",relative kcat,16 fold
"NME7 (Homo sapiens, UniProt Q9Y5B8-1)",TUBG1/TUBGCP2/TUBGCP3/TUBGCP4/TUBGCP5/TUBGCP6 γ-tubulin ring complex (Homo sapiens),"microtubule nucleation, activator",,,"reference: γTuRC alone, higher = more nucleation",relative microtubule nucleation,2.5 fold
RPKRPTTLNLF (MAPK8IP1 residues 157-167 (Homo sapiens)),"MAPK10 JNK3α1, pT221/pY223 (Homo sapiens, UniProt P53779-2)","displacement of labelled peptide, competitor, FRET",peptide,"pH 7.4, NaCl 150 mM",,IC50,500 ± 20 nM
"thyrotropin-releasing hormone, pyroGlu, C-terminal amide (Gallus gallus)","protein (Gallus gallus, UniProt O93603)","MAPK/ERK signaling, SRE luciferase reporter, agonist",HEK 293,,,EC50,4.5 nM
EGF mature (Mus musculus),"Egfr whole, on cells (Rattus norvegicus)",radioligand binding,NRK,"0.3 nM, not TGF-beta treated, added: FeSV-Fre TGF-beta",,specific binding,390 cpm/well
H-EDGGSFWYGAMKALYG-NH2 (designed peptide; C-terminal amide),"CIB1 (Homo sapiens, UniProt Q99828)","competition with peptide, competitor, TR-FRET",peptide,,,IC50,46 ± 13 nM
"Prdm16 (Mus musculus, UniProt A2A935)","Znf516 (Mus musculus, UniProt Q7TSH3)",UCP1 promoter reporter,293FT,added: Zfp516 with PRDM16,higher = more promoter activity,luciferase reporter activity,25 fold
LHNHYT,,,"peptide, human polyclonal IgM RF SOR","concentration not given, 5 µg/mL mAb II-481 coated, added: RF at 50% max binding concentration",,inhibition,0%
"Ctnnb1 (Mus musculus, UniProt Q02248)","Cdh1 157-884 (Mus musculus, UniProt P09803)",co-IP,HEK293T,0.5 µg,"reference: control, higher = more E-cadherin",E-cadherin coprecipitated,0.27 a.u.

# Excerpt of the above:
Substance,target or system,test,system,conditions,how to read,endpoint,result
CBFB/MYH11 fusion (Homo sapiens),"RUNX1 (Homo sapiens, UniProt Q01196)",ChIP,ME-1,"6 hours h, RUNX3 promoter, added: AI-10-49 1 µM","reference: DMSO, higher = more occupancy",RUNX1 occupancy,8 fold
"GABBR1 GABAB1b isoform, full length (Homo sapiens)","GABBR2 R714A (Homo sapiens, UniProt O75899)",anti-Flag M1 on intact cells,,,"reference: WT/WT heterodimer, higher = more surface expression",cell surface expression,77%
